Earlier results that unrelated publications cite.
Protocols differ between the studies behind these lines. ± gives the spread as reported.
Chain of UniProt P34914 (whole entry, looked up): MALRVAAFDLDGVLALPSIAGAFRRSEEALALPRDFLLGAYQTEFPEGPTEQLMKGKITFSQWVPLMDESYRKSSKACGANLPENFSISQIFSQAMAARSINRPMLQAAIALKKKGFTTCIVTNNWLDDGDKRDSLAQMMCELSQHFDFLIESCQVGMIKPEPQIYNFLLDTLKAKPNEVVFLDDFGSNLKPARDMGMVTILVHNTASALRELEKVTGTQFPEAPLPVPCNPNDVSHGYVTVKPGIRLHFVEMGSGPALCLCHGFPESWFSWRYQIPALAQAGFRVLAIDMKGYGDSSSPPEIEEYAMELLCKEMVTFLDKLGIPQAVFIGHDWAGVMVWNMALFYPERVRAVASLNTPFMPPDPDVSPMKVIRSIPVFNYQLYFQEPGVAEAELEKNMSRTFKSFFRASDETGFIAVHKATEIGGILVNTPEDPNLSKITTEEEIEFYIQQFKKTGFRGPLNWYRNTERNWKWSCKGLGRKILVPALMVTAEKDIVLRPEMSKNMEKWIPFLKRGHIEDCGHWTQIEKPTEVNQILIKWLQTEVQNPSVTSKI
Chain of UniProt P23739 (whole entry, looked up): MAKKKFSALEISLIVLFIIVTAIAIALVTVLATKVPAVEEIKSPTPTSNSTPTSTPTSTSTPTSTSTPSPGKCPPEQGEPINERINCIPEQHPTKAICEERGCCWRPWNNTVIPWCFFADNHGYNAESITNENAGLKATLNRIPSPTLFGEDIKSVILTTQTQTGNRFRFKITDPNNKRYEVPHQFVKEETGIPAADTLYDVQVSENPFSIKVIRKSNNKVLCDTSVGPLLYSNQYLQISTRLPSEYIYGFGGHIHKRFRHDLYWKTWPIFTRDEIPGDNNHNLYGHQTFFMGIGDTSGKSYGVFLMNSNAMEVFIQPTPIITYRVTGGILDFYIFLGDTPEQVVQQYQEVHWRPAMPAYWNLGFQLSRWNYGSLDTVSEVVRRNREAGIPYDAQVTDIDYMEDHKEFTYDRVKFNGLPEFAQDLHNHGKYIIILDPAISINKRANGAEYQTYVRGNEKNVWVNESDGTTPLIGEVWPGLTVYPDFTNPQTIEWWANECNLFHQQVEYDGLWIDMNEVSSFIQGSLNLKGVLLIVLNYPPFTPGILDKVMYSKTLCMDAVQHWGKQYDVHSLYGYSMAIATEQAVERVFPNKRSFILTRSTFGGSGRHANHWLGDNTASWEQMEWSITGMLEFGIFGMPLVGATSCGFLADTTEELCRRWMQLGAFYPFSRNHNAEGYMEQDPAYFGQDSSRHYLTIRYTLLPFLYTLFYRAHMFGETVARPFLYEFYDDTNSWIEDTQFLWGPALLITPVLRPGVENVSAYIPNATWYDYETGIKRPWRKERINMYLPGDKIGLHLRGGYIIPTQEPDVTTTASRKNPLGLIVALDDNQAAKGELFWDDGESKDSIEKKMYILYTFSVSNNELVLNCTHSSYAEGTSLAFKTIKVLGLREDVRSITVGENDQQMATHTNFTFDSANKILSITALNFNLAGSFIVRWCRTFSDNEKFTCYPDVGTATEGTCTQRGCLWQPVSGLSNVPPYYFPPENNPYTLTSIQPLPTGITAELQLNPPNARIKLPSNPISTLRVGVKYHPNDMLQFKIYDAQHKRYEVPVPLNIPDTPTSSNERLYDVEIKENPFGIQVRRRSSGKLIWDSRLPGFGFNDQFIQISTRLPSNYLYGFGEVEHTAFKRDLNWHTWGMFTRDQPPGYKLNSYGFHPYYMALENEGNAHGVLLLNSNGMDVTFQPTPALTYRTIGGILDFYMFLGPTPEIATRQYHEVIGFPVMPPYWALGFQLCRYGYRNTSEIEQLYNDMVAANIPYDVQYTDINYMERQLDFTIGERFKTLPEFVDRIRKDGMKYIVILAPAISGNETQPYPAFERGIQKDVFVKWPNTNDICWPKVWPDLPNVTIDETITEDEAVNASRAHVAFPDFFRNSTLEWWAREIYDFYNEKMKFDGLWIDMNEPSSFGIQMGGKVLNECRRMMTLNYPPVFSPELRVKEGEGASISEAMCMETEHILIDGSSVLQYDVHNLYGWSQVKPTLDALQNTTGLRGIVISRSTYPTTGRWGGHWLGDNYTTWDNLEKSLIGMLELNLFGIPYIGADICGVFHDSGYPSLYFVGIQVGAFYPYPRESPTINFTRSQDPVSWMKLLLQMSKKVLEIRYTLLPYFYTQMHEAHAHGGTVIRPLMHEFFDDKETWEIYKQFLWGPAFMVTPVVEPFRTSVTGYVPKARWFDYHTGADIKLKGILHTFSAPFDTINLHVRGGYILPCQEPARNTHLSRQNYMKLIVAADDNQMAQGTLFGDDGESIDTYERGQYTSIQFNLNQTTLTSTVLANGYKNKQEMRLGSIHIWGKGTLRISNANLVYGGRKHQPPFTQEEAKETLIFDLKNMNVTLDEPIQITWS
Chain of UniProt Q9BY41 (whole entry, looked up): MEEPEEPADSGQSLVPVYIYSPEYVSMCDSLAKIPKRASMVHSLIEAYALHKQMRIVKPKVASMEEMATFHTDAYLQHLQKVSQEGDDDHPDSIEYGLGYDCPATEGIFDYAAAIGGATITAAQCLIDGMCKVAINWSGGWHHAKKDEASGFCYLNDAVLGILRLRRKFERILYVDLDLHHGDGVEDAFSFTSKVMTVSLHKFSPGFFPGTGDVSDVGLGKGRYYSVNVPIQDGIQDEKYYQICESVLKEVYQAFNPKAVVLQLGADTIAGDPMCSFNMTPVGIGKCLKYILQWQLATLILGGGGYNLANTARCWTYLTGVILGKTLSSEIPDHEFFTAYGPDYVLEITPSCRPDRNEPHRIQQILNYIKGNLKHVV
Chain of UniProt P21741 (whole entry, looked up): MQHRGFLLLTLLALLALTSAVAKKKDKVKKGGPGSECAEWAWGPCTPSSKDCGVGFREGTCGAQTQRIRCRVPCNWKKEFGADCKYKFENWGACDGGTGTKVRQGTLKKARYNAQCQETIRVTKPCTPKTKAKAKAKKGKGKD
Chain of UniProt P16732 (whole entry, looked up): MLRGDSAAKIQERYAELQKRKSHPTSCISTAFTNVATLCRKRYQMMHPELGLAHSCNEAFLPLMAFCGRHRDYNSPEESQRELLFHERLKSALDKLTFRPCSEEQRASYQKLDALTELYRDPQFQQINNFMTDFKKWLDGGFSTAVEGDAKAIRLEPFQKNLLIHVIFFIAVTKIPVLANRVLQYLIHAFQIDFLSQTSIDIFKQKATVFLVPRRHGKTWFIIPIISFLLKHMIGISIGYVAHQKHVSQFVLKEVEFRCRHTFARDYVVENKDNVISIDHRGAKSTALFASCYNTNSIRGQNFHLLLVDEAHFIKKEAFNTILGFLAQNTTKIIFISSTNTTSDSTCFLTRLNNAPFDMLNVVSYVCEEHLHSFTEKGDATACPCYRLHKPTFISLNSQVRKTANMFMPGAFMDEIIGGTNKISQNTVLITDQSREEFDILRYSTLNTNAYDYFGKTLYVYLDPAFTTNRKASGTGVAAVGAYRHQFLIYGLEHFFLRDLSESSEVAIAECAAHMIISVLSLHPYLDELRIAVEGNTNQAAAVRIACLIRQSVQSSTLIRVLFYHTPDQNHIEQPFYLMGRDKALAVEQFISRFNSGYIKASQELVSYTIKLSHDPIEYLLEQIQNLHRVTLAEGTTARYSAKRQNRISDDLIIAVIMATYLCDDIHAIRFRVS
Chain of UniProt P49759 (whole entry, looked up): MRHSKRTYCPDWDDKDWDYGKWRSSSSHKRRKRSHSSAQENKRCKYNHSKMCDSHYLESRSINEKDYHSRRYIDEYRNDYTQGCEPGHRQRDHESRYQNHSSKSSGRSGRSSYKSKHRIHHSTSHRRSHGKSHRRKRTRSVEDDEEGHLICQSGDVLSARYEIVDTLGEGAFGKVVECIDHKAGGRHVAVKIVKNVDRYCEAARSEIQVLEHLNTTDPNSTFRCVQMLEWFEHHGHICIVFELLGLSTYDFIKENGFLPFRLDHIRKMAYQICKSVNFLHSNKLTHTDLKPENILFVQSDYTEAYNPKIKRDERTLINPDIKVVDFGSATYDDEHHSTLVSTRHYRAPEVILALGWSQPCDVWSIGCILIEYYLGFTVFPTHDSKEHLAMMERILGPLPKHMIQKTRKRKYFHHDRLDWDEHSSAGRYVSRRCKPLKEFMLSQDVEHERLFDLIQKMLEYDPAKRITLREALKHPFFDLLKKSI
Chain of UniProt Q695T7 (whole entry, looked up): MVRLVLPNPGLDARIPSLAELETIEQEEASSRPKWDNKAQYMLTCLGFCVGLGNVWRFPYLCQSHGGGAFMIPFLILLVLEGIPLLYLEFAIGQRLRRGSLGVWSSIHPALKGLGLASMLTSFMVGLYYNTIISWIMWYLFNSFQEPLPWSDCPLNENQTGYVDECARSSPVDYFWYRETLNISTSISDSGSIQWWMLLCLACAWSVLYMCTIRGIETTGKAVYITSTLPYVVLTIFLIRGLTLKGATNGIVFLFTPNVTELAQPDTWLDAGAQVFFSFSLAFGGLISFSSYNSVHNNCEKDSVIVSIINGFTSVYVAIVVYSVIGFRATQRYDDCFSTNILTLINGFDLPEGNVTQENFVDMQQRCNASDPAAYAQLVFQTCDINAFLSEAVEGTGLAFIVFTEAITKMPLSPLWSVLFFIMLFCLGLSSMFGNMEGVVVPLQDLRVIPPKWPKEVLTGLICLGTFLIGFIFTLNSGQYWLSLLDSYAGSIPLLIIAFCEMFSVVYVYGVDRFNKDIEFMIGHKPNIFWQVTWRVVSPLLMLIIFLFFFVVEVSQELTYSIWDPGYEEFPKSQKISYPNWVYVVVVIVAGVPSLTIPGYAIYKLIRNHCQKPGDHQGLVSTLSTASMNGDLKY

C=CCSc1nnc(-c2cc3ccccc3n2CC=C)n1-c1ccccc1 — IC50 (Poly [ADP-ribose] polymerase 1 (PARP1, Homo sapiens, UniProt P09874); inhibitor): 330 nM
Cc1ccc2oc(=O)c(-c3nc4cnccc4[nH]3)cc2c1 — IC50 (Bifunctional arginine demethylase and lysyl-hydroxylase JMJD6 (Homo sapiens, UniProt Q6NYC1); demethylase activity, inhibitor): 150 ± 34.1 nM
CC(=O)O[C@H]1C2=C(C(=O)C(OC(=O)c3ccccc3)=C(C(C)C)C2=O)[C@@]2(C)CCCC(C)(C)[C@@H]2[C@@H]1OC(=O)c1ccccc1 — GI50 (MCF7; cell growth): 10 to 30 µM
COCCOCCOCCOCCC(=O)NCc1cc(CNC(=O)CCOCCOCCOCCOC)cc(-c2cc3cc4nc(c(OC)c5[nH]c(cc6nc(cc2[nH]3)CC6(C)C)cc5-c2cc(CNC(=O)CCOCCOCCOCCOC)cc(CNC(=O)CCOCCOCCOCCOC)c2)CC4(C)C)c1 — Soret (B) absorption maximum (PBS; room temperature): 358 nm
Cc1cc(C)n(-c2ccc(S(=O)(=O)NC(=N)N)cc2)c(=O)c1C#N — IC50 (DNA gyrase; enzyme activity): 39200 nM
NC(=O)c1cn(Cc2ccc(F)cc2)cc(O)c1=O — IC50 (Tripartite terminase subunit 3, C-terminal nuclease domain (Human betaherpesvirus 5, UniProt P16732); inhibitor): > 50000 nM
CC(c1ccc(F)cc1)n1nnc2cnc3ccc(-c4ccc5ocnc5c4)cc3c21 (stereo not shown) — IC50 (Dual specificity protein kinase CLK1 (CLK1, Homo sapiens, UniProt P49759)): 2 nM
O=C(Nc1ccc(OC(F)(F)F)cc1)N[C@H]1CC[C@H](Oc2ccc(C(=O)OCc3ccccc3)cc2)CC1 — IC50 (Bifunctional epoxide hydrolase 2 (Ephx2, Mus musculus, UniProt P34914); enzyme activity, inhibitor; mouse): 5.7 nM
O=S(=O)(Nc1ccc(S(=O)(=O)C(F)(F)F)cc1Oc1cc(F)cc(F)c1)c1ccccc1 — IC50 (Sodium-dependent neutral amino acid transporter B(0)AT1 (SLC6A19, Homo sapiens, UniProt Q695T7); inhibitor): 35 nM
C[C@@H](Nc1c(-c2c(F)cc(C#CCCO)cc2F)c(Cl)nc2ncnn12)C(C)(C)C — acetylated α-tubulin level (HEK293; 10 µM, 4 h, unit not given; baseline: vehicle (DMSO)): 5.25 ± 0.89
C=CC(=O)N1CCC[C@@H](n2nc(-c3ccc4ccccc4c3)c3c(N)ncnc32)C1 — kinact (Epidermal growth factor receptor (EGFR, Homo sapiens, UniProt P00533, L858R)): 0.14 ± 0.01 min⁻¹
Cc1ccc(C(CNC(=O)OCc2ccccc2)C(=O)OCc2cc(=O)c(O)c[nH]2)cc1 (stereo not shown) — IC50 (tyrosinase; diphenolase activity, inhibitor): 1950 nM
Cc1ccccc1-c1cc(N2CC[N+](C)([O-])CC2)ncc1N(C)C(=O)C(C)(C)c1cc(C(F)(F)F)cc(C(F)(F)F)c1 — Tmax (healthy volunteers, plasma; oral, 450 mg, single dose, netupitant alone): 4.47 h
COc1ccc(O[C@@H]2O[C@H](COS(=O)(=O)O)[C@H](OS(=O)(=O)O)[C@H](O[C@@H]3O[C@H](C(=O)O)[C@@H](O[C@@H]4O[C@H](COS(=O)(=O)O)[C@H](OS(=O)(=O)O)[C@H](O[C@@H]5O[C@@H](C(=O)O)[C@@H](OS(=O)(=O)O)[C@H](OCc6ccccc6)[C@H]5OS(=O)(=O)O)[C@H]4NC(C)=O)[C@H](OCc4ccccc4)[C@H]3OS(=O)(=O)O)[C@H]2NC(C)=O)cc1 — IC50 (Midkine (Homo sapiens, UniProt P21741); binding to tetrasaccharide): 2500 nM
Nc1n[nH]c(NCc2c(Cl)cccc2Oc2cccc3ccccc23)n1 — IC50 (Lysine-specific histone demethylase 1A, with CoREST (KDM1A, Homo sapiens, UniProt O60341); enzyme activity, inhibitor): 230 nM
O=C(Nc1cccc(OCC2CCCN2)n1)Nc1csc(-c2ccncc2)n1 (stereo not shown) — IC50 (Cyclin-dependent kinase 2 (CDK2, Homo sapiens, UniProt P24941); ATP-competitive inhibitor; CDK2/cyclin E2): 4 nM
OC[C@H](OCc1ccccc1C(F)(F)F)[C@H](O)C[S@@+]1C[C@@H](O)[C@H](O)[C@H]1CO — IC50 (Sucrase-isomaltase, intestinal (Si, Rattus norvegicus, UniProt P23739); sucrase activity, inhibitor; rat intestinal disaccharidases): 150 nM
O=C(NO)c1ccc(Cn2c3c(c4cc(F)ccc42)SC(c2ccccc2)C3)s1 (stereo not shown) — IC50 (Histone deacetylase 8 (HDAC8, Homo sapiens, UniProt Q9BY41); inhibitor; added: Fluor-de-Lys substrate 50 µM): 2030 ± 280 nM
COc1cc2oc(=O)ccc2cc1-c1c(O)cc(O)c2c(=O)cc(-c3ccc(O)c(O)c3)oc12 — IC50 (alpha-amylase; inhibitor): 6890 ± 1170 nM
N=C(N)NCCC[C@H](NC(=O)[C@H](CSSC[C@H](NC(=O)[C@H](Cc1ccc(O)cc1)NC(=O)[C@H](Cc1c[nH]c2ccccc12)NC(=O)[C@H](CCCNC(=N)N)NC(=O)[C@@H](N)Cc1c[nH]c2ccccc12)C(=O)N[C@@H](CCCNC(=N)N)C(N)=O)NC(=O)[C@H](Cc1ccc(O)cc1)NC(=O)[C@H](Cc1c[nH]c2ccccc12)NC(=O)[C@H](CCCNC(=N)N)NC(=O)[C@@H](N)Cc1c[nH]c2ccccc12)C(N)=O (single isomer, unassigned) — IC50 (phage lambda integrase; excision, inhibitor; without DTT, dimer equivalents): 10 nM
CC(C)C1=C(O)C(=O)C2=C(C1=O)[C@H](O)[C@@H](O)[C@H]1C(C)(C)CCC[C@]21C — GI50 (UACC-62): > 30 µM
CCCCCCCCCCCCCC(=S)NCCCC[C@H](NC(=O)c1ccc(C(=O)c2ccc(OC/C=C/CN=[N+]=[N-])cc2)cc1)C(=O)N[C@@H](C)C(=O)N[C@@H](C)C(=O)OC — IC50 (NAD-dependent protein deacetylase sirtuin-2 (SIRT2, Homo sapiens, UniProt Q8IXJ6); enzyme activity, inhibitor): 9140 ± 980 nM

Excerpt of the above:
CC(C)C1=C(O)C(=O)C2=C(C1=O)[C@H](O)[C@@H](O)[C@H]1C(C)(C)CCC[C@]21C — GI50 (UACC-62): > 30 µM
COc1cc2oc(=O)ccc2cc1-c1c(O)cc(O)c2c(=O)cc(-c3ccc(O)c(O)c3)oc12 — IC50 (alpha-amylase; inhibitor): 6890 ± 1170 nM
